Experimental data pooled from the literature.
Each line is one published result; not all experiments were run side by side. Numbers after ± are the reported error.
SPT15 full length assumed: SPT15 full length assumed (Saccharomyces cerevisiae, UniProt P13393)
UniProt P13393, sequence (whole entry, looked up): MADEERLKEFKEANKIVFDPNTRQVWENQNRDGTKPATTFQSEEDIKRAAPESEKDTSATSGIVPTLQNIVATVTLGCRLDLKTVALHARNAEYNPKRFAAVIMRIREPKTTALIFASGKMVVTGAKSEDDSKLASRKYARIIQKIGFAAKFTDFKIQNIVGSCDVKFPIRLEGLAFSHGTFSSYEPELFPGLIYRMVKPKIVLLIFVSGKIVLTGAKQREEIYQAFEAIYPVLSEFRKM
CBF1: CBF1 1-351 (Saccharomyces cerevisiae, UniProt P17106)
UniProt P17106, sequence (whole entry, looked up): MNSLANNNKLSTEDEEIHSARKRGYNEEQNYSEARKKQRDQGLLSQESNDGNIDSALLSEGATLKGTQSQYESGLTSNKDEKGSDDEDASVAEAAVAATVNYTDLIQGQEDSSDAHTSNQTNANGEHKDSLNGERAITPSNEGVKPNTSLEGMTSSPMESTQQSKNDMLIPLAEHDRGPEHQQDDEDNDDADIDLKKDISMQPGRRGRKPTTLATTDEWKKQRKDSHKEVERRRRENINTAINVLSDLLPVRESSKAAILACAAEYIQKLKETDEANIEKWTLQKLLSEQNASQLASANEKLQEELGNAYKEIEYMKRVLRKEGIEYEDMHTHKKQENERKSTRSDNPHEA
U2AF2: U2AF2 148-342 (Homo sapiens, UniProt P26368)
UniProt P26368, sequence (whole entry, looked up): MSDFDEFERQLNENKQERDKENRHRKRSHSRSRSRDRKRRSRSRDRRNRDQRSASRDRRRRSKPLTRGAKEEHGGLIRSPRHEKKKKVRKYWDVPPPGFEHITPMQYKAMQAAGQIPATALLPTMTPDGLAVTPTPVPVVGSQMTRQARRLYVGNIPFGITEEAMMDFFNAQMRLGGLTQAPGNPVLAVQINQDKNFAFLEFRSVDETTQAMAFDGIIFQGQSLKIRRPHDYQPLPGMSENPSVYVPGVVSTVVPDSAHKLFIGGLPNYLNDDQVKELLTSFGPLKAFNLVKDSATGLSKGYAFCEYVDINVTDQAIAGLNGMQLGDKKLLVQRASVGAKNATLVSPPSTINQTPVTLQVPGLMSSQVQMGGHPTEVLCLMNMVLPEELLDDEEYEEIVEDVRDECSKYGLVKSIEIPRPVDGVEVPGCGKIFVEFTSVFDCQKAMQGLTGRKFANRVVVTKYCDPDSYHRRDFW
PHO4 full length assumed: PHO4 full length assumed (Saccharomyces cerevisiae, UniProt P07270)
UniProt P07270, sequence (whole entry, looked up): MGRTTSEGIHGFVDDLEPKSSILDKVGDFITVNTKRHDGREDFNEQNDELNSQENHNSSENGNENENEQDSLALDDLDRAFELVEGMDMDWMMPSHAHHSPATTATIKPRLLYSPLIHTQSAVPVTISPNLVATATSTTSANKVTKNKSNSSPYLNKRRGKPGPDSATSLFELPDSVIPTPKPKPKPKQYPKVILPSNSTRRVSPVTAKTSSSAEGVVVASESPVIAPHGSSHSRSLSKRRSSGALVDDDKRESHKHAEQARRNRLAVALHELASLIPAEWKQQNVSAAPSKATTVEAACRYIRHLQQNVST
pdhR full length assumed: pdhR full length assumed (Escherichia coli, UniProt P0ACL9)
UniProt P0ACL9, sequence (whole entry, looked up): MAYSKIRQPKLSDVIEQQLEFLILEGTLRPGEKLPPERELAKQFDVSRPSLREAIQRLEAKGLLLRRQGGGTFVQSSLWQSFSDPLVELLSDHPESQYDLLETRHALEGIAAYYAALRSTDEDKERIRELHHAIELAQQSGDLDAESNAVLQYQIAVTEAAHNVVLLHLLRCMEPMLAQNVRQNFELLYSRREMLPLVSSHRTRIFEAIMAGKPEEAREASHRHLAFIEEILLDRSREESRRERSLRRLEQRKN
CIN5 full length assumed: CIN5 full length assumed (Saccharomyces cerevisiae, UniProt P40917)
UniProt P40917, sequence (whole entry, looked up): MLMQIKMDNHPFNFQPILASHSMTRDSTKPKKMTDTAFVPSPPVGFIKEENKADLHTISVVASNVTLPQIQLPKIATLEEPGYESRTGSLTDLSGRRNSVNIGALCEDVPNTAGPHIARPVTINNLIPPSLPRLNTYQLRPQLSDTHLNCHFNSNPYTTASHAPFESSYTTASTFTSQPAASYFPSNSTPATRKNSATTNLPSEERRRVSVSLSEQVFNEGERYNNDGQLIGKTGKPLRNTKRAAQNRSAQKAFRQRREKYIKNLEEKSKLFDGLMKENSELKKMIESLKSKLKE
PARP1 216-1014 del1-215: PARP1 216-1014 del1-215 (Homo sapiens, UniProt P09874)
UniProt P09874, sequence (whole entry, unmodified, looked up): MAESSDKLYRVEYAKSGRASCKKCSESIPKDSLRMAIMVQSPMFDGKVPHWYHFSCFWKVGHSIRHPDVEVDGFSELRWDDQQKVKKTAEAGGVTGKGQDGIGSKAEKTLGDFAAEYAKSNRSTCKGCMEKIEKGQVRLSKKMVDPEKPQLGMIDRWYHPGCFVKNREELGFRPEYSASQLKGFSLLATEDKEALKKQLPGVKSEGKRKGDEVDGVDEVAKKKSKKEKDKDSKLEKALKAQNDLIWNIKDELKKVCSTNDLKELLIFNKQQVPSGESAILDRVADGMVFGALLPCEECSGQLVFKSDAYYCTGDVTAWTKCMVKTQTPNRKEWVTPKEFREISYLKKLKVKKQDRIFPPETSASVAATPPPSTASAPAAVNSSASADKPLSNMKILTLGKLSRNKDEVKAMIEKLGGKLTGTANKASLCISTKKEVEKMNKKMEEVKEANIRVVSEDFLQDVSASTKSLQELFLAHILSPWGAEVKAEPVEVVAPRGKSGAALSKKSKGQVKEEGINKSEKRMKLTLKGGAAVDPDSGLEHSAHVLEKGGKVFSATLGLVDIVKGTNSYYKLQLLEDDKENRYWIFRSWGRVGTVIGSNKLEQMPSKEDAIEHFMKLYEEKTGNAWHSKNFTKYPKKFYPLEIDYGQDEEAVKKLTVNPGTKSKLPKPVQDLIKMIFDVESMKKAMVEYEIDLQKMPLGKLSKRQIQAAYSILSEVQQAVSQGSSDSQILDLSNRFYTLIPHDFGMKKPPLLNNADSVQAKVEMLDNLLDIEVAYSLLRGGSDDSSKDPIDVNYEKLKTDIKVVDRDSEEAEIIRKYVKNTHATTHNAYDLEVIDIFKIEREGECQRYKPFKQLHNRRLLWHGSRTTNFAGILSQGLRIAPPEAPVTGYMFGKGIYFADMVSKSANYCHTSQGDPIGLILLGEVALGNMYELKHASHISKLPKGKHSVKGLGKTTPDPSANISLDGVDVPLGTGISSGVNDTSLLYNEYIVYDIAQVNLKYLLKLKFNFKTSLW
GATA1: GATA1 200-319 (Homo sapiens, UniProt P15976)
UniProt P15976, sequence (whole entry, looked up): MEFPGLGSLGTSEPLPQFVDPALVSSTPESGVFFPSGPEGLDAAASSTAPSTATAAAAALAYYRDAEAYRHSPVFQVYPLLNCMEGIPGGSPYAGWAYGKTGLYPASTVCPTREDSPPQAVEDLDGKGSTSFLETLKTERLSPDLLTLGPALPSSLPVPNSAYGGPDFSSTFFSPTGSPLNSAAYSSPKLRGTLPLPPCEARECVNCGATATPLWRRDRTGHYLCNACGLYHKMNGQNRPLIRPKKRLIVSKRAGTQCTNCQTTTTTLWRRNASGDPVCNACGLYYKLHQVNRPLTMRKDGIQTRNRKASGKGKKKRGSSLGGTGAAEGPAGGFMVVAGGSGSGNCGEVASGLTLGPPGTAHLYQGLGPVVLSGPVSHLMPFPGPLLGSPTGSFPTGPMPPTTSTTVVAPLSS
MECP2: MECP2 1-486 (Homo sapiens, UniProt P51608)
TGM2: TGM2 2-687 (Homo sapiens, UniProt P21980)
UniProt P21980, sequence (whole entry, looked up): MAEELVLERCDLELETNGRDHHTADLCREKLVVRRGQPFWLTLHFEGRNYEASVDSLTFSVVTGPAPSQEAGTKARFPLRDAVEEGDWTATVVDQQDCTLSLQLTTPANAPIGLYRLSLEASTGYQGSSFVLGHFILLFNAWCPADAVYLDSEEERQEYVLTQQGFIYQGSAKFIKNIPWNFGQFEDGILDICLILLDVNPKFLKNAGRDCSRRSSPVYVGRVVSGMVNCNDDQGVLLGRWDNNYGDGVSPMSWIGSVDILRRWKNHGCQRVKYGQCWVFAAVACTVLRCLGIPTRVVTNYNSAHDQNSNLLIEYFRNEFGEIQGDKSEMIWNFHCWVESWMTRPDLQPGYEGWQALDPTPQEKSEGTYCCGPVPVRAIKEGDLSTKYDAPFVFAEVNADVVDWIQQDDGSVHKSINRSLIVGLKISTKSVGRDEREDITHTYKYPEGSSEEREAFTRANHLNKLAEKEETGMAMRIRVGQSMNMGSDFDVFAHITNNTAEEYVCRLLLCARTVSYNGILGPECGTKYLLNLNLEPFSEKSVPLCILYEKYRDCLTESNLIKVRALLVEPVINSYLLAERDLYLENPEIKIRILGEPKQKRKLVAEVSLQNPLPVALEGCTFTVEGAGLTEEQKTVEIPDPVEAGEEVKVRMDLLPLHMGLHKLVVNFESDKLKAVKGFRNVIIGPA
T1: MUTYH 1-535 (Homo sapiens); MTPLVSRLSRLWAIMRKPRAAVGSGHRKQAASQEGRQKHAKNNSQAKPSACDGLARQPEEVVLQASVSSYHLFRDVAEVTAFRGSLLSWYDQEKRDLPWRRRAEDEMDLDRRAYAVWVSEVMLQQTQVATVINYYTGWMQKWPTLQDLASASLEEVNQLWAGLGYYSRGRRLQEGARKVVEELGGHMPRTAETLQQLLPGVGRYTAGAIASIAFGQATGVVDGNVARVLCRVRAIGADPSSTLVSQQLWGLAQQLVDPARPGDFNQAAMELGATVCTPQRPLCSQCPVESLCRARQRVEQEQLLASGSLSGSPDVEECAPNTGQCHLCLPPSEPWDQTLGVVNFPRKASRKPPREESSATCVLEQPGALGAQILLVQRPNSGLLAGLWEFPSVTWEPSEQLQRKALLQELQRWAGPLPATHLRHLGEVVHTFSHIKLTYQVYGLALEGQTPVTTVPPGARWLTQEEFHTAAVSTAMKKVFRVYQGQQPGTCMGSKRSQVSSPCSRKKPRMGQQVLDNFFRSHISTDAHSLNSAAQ
UniProt P07676, sequence (whole entry, unmodified, looked up): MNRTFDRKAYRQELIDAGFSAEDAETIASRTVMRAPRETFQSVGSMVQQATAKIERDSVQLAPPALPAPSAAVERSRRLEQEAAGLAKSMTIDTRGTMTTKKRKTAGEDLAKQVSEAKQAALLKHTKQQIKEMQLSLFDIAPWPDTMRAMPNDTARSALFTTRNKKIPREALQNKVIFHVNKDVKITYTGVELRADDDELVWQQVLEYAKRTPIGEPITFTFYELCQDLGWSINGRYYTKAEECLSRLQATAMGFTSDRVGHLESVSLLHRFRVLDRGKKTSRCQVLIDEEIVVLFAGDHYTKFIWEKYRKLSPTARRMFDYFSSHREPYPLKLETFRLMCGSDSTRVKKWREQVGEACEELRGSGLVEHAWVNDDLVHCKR
UniProt Q47005, sequence (whole entry, looked up): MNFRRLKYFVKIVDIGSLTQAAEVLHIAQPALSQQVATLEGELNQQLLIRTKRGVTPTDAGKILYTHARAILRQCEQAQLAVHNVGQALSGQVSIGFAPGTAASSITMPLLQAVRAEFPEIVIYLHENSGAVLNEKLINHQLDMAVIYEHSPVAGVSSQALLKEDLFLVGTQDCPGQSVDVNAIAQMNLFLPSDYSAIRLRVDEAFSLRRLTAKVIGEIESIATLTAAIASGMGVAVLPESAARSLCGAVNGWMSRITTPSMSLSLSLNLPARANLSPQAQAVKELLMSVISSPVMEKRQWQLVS

`DNA 1 ACATTTTTTTCGTTTGTTAGAATAATTCAAGAATCTCAATTCAATCGGTCC / DNA 2 GGACCGATTGACTTGAGATTCTTGAATTATTCTAACAAACGAAAAAAATGT (dsDNA; 5'-amino-C6 primer)` has a Kd of 18.6 ± 2 nM (SPT15 full length assumed; array; double-stranded DNA; TBP alone).
`AGAGTGCGACACCTGATTCC / GGAAUCAGGUGUCGCACUCU (DNA:RNA)` has a Kd of 84 ± 6 nM (S9.6 antibody (Mus musculus); fluorescence anisotropy; Kd per binding site, no DTT).
`CAATACACTGTTATCAGACTCACGTGTCGAGCTACTCGTTCGGTTATCCGGCGGTATGAC (dsDNA)` has a Kd of 82 ± 4 nM (CBF1; MITOMI; double-stranded DNA, one strand shown; not purified).
`CUCUCUCGU (ssRNA)` gave a Kd of 2080 nM (U2AF2; sequencing of bound RNA; RNA; motif only).
For `CGCGACAACGTGAGAACGTGATAACGTGCCAACGTGCGAACGTGCTAACGTGGCACTCCGGCGGTATGAC (dsDNA)`, the Kd was 140 ± 10 nM (PHO4 full length assumed; MITOMI; double-stranded DNA, one strand shown; not purified).
`CATTCGCAACCTATAAGTAAATCCAATGGAACTCATCATAAATGAGACTTTTACCTTATGA (dsDNA)` gave a Kd of 208 nM (pdhR full length assumed; BLI; double-stranded DNA, one strand shown).
`CGCTATTTACGTCACTACGTCAGCACGTCAGGACGTCAGTACGTCATCACGTCATCTCCGGCGGTATGAC (dsDNA)` has a Kd of 330 ± 20 nM (CIN5 full length assumed; MITOMI; double-stranded DNA, one strand shown; not purified).
`GAATTCCTATGAAGTAATGTGGAGCTCCGTTCGTCTCAAGTCAATCGGTCC (dsDNA; 5'-amino-C6 primer)` has a Kd of 2.73 ± 0.17 nM (SPT15 full length assumed; array; double-stranded DNA, one strand shown; TBP alone).
With `GCGGUGUAUAGCCUAAUCUUUACCGC (structured RNA)` the Kd was 69.1 ± 5.9 nM (PARP1 216-1014 del1-215; fluorescence polarization; folded RNA; Hill coefficient 0.80).
`CAATACACTGTTATCAGACACACGTGTCGGGCTACTCGTTCGGTTATCCGGCGGTATGAC (dsDNA)` gave a Kd of 213 ± 12 nM (CBF1; MITOMI; double-stranded DNA, one strand shown; not purified).
For `AUACAACAUACAACAUACAA (ssRNA)`, the Kd was 230 ± 90 nM (GATA1; fluorescence anisotropy; RNA).
`TTTGCGTGGGCTGTGGTGCTTT (ssDNA)` gave a Kd of 47 ± 5.8 nM (traI 330-858 (Escherichia coli, UniProt P14565); fluorescence titration; single-stranded DNA).
With `TCCTGAAGGGGAGCCCTAGCTTGGTCCTATCGTCGTCAAGTCAATCGGTCC (dsDNA; 5'-amino-C6 primer)` the Kd was 9.08 ± 3.35 nM (SPT15 full length assumed; array; double-stranded DNA, one strand shown; TBP alone).
For `AAACCUCUUUUCUUUAUAAA (ssRNA)`, the Kd was 914 ± 461 nM (U2AF2; ITC; RNA).
For `AGCGTCACAGACATGAAATTGGTAAGACCAATTGACTTCGGCAAGTGGCTTAAGACAGGAA (dsDNA)`, the Kd was 4820 nM (nac full length assumed (Escherichia coli, UniProt Q47005); BLI; double-stranded DNA, one strand shown).
`CCATCGCTACC (dsDNA)` gave a Kd of 15 ± 3 nM (SUB1 full length assumed (Homo sapiens, UniProt P53999); fluorescence anisotropy; double-stranded DNA, one strand shown).
`GAATTCCTATAAAGTAATGTGGAGCTCCGTTCGTCTCAAGTCAATCGGTCC (dsDNA; blunt; 5'-amino-C6 primer)` gave a Kd of 3.1 ± 1.3 nM (SPT15 full length assumed; EMSA; double-stranded DNA, one strand shown).
For `CAATACACTGTTATCAGACACACGTGTCCAGCTACTCGTTCGGTTATCCGGCGGTATGAC (dsDNA)`, the Kd was 111 ± 5 nM (CBF1; MITOMI; double-stranded DNA, one strand shown; not purified).
With `TTGACAAAATTTGAAAGTTGGAAAAATTTTCCAATAAATAGAGGTAGGAATAAAATGGCAA (dsDNA)` the Kd was 190 nM (pdhR full length assumed; BLI; double-stranded DNA, one strand shown).
With `UCUUAUUUU (ssRNA)` the Kd was 8590 nM (U2AF2; sequencing of bound RNA; RNA; motif only).
For `DNA 1 TGAGGATGTATATATCTGACGCGCCGGTGGAGC / DNA 2 GCTCCACCGGCGCGTACGATATATACATCCTCA (dsDNA)`, the Kd was 43 nM (TDG 1-410 (Homo sapiens, UniProt Q13569); EMSA; double-stranded DNA).
`CAATACACTGTTATCAGACACACGTGTGGAGCTACTCGTTCGGTTATCCGGCGGTATGAC (dsDNA)` has a Kd of 387 ± 22 nM (CBF1; MITOMI; double-stranded DNA, one strand shown; not purified).
With `UCAACGACUCAACGAC (ssRNA)` the Kd was 4700 ± 1200 nM (ECD 1-644 (Homo sapiens, UniProt O95905); FP; RNA).
With `ATGATTACTAATTCTTAACATTCGAGTTCAATCTCTCAAGTCAATCGGTCC (dsDNA; 5'-amino-C6 primer)` the Kd was 2.34 ± 0.17 nM (SPT15 full length assumed; array; double-stranded DNA, one strand shown; TBP alone).
`UUUUC (ssRNA)` has a Kd of 200 ± 100 nM (RNA-directed RNA polymerase P2 1-659 (UniProt Q94M06); fluorescence anisotropy; RNA; MgCl2 5 mM, NaCl 50 mM).
The Kd of `CGCGGGCACATGGGGACATGGGTACATGGTCACATGGTGACATGGTTACATGTAGCTCCGGCGGTATGAC (dsDNA)` is reported as 61 ± 4 nM (CBF1 full length assumed (Saccharomyces cerevisiae, UniProt P17106); MITOMI; double-stranded DNA, one strand shown; not purified).
The Kd of `GCAGUAGGGUGAGGGUGUUGGCAGGGAGCGCCCUCCCCCAUAGUGU (RNA; multiple G-quadruplex hairpins)` is reported as 6.8 ± 1.3 nM (PARP1 216-1014 del1-215; fluorescence polarization; folded RNA; Hill coefficient 0.45).
The Kd of `CGCCATGTAGACATGTATACATGTCCACATGTCGACATGTCTACATGTGCACATGCTCCGGCGGTATGAC (dsDNA)` is reported as 110 ± 10 nM (PHO4 full length assumed; MITOMI; double-stranded DNA, one strand shown; not purified).
The Kd of `RNA 1 GCGGUGUAUAGCCUAAUCUUUACCGC / RNA 2 GCGGUAAAGAUUAGGCUAUACACCGC (dsRNA)` is reported as 53 nM (MECP2; fluorescence polarization; double-stranded RNA; untagged).
`AGCGTCACAGACATGAAAATGGTCAGACCACTTGACCTCGGCAAGTGGCTTAAGACAGGAA (dsDNA)` has a Kd of 2.41 nM (pdhR full length assumed; BLI; double-stranded DNA, one strand shown).
For `GGAGAGGCUGAGACUAACCCAGAAACAUCCAAUUCUCAAACUGAAGCUCGCACUCUCCC (RNA; hairpin)`, the Kd was 16 ± 2 nM (GATA1; fluorescence anisotropy; folded RNA).
For `CGATCATGGAGCCACGAGCTCCCGTTACAG / CTGTAACGGGAGCTNGTGGCTCCATGATCG (dsDNA; blunt, 8-oxoG opposite N)`, the Kd was < 0.05 nM (T1, MUTYH 1-535 (Homo sapiens); EMSA).
The Kd of `CGCGGGAATTAGGTAATTAGTCAATTAGTGAATTAGTTAATTATACAATTATAGACTCCGGCGGTATGAC (dsDNA)` is reported as 900 ± 70 nM (CIN5 full length assumed; MITOMI; double-stranded DNA, one strand shown; not purified).
For `CCTGCGGTATTGACACTTGAGGGGCGCGACTACTGACAGATGAGGGGCGCGATCCTTGACACTTGAGGGGCAGAGTGATGACAGATGAGGGGCGCACCTATTGACATTTGAGGGGCTGTCCACAGGCAG (dsDNA)`, the Kd was 2.49 nM (trfA 98-382 G254D/S267L (Escherichia coli, UniProt P07676); SPR; double-stranded DNA, one strand shown).
With `RNA 1 CGGCAGGACGUACAUCCCUCCCGGCUCCCCUCCCGCUGGCCUGCCG / RNA 2 CGGCAGGCCAGCGGGAGGGGAGCCGGGAGGGAUGUACGUCCUGCCG (dsRNA)` the Kd was 11.4 ± 0.8 nM (MECP2; fluorescence polarization; double-stranded RNA; Hill coefficient 0.78).
With `CUUCACCCA (ssRNA)` the Kd was 1210 nM (U2AF2; sequencing of bound RNA; RNA; motif only).
For `GAUAAAGAUCAUGACAUCGACUACAAGGACGACGACGACAAGGUUGUGGAGCUGAUCGAGAAGCACCACCACCACCACCACAAAGUGGUGAUGAACUAA (RNA; predicted 2-5 helices)`, the Kd was 11000 ± 6000 nM (FMR1 fragment (Homo sapiens); fluorescence anisotropy; folded RNA; added: tRNA competitor).
With `TTCAATGCACTATATTAGTGCAACAAACCTGGCGTGCACCATGATGATCATTCCATCAGGT (dsDNA)` the Kd was 2.79 nM (glnG full length assumed (Escherichia coli, UniProt P0AFB8); BLI; double-stranded DNA, one strand shown).
`GGGAGCAGGAGAGAGGUCAGAUGGUCGAGAUUCUGAGGGUUCUCCUGGUGGCUCCUAUGCGUGCUAGUGUGA (ssRNA; 2'-fluoro pyrimidines)` gave a relative binding of 340 RU (TGM2; SPR; RNA; added: MgCl2 5 mM; higher = more binding).
With `UUAUUUAAU (ssRNA)` the Kd was 16200 nM (U2AF2; sequencing of bound RNA; RNA; motif only).
The Kd of `GAUACA (ssRNA)` is reported as 4700 ± 1100 nM (SART3 697-786 (Homo sapiens, UniProt Q15020); ITC; RNA).
`CAATACACTGTTATCAGACACACGTGTCGTGCTACTCGTTCGGTTATCCGGCGGTATGAC (dsDNA)` has a Kd of 220 ± 10 nM (CBF1; MITOMI; double-stranded DNA, one strand shown; not purified).
`GGGAGCAGGAGAGAGGUCAGAUGAACGGUAAACGUGCAAGCCAGUCCUGUUCUCCUAUGCGUGCUAGUGUGA (ssRNA; 2'-fluoro pyrimidines)` gave a relative binding of -10.3 RU (TGM2; SPR; RNA; added: MgCl2 5 mM; higher = more binding).
`CAATACACTGTTATCAGACACACGTGTTGAGCTACTCGTTCGGTTATCCGGCGGTATGAC (dsDNA)` gave a Kd of 208 ± 10 nM (CBF1; MITOMI; double-stranded DNA, one strand shown; not purified).
The Kd of `AUCAUGUUGCCAUUU (ssRNA)` is reported as 615 nM (fbf-1 162-614 (Caenorhabditis elegans, UniProt Q9N5M6); EMSA; RNA).

A few entries again:
With `GCGGUGUAUAGCCUAAUCUUUACCGC (structured RNA)` the Kd was 69.1 ± 5.9 nM (PARP1 216-1014 del1-215; fluorescence polarization; folded RNA; Hill coefficient 0.80).
`CAATACACTGTTATCAGACACACGTGTCGGGCTACTCGTTCGGTTATCCGGCGGTATGAC (dsDNA)` gave a Kd of 213 ± 12 nM (CBF1; MITOMI; double-stranded DNA, one strand shown; not purified).
For `AUACAACAUACAACAUACAA (ssRNA)`, the Kd was 230 ± 90 nM (GATA1; fluorescence anisotropy; RNA).
`TTTGCGTGGGCTGTGGTGCTTT (ssDNA)` gave a Kd of 47 ± 5.8 nM (traI 330-858 (Escherichia coli, UniProt P14565); fluorescence titration; single-stranded DNA).
